Assay results of several laboratories.
Lines come from different studies, so protocols differ.
Cell line: HepG2

`CC(C)(C)c1cc2c(O)c(c1)Cc1cc(C(C)(C)C)cc(c1OCC(=O)Nc1cncc3ccccc13)Cc1cc(C(C)(C)C)cc(c1O)Cc1cc(C(C)(C)C)cc(c1OCC(=O)Nc1cncc3ccccc13)COC2` has an inhibition of 91% (cell growth or viability, MTT; 15 µM, 72 h).
`CC(=O)O[C@@H]1CC[C@@]2(C)C(CC[C@]3(C)C2C(=O)C=C2C4[C@@H](C)[C@H](C)CC[C@]4(C)CC[C@]23C)[C@@]1(C)C(=O)N/N=C1/C(=O)Nc2ccccc21` (some centres unmarked) gave an inhibition of about 39% (IL-1β production, ELISA, measured: IL-1β; 1 µM, added: acetaminophen 10 mM; relative to: acetaminophen-treated cells).
`CC1(C)[C@@H](O)CC[C@]2(C)[C@H]3C(=O)C=C4[C@@H]5C[C@@](C)(C(=O)O)CC[C@]5(C)CC[C@@]4(C)[C@]3(C)CC[C@@H]12` gave an inhibition of 0% (cell growth or viability, MTT; 2 µg/mL).
For `CC(C)(C)c1cc2c(O)c(c1)Cc1cc(C(C)(C)C)cc(c1OCC(=O)Nc1ccncc1)Cc1cc(C(C)(C)C)cc(c1O)Cc1cc(C(C)(C)C)cc(c1OCC(=O)Nc1ccncc1)COC2`, the inhibition was 22% (cell growth or viability, MTT; 15 µM, 72 h).
`C/C(=N\N=c1/[nH]c(-c2ccccc2)cs1)c1ccccn1` gave an inhibition of 67.7% (cell growth or viability, SRB; 100 µg/mL, 48 h).
With `O=C(COc1ccc(/C=N/Nc2nc(-c3ccc(Br)cc3)cs2)cc1)N1CCN(C(=O)COc2ccc(/C=N/Nc3nc(-c4ccc(Br)cc4)cs3)cc2)CC1` the inhibition was 62.3% (cell growth or viability, SRB; 100 µM, 48 h).
The inhibition of `C[C@]1(COC(=O)c2ccc(O)c(O)c2)[C@H](C(=O)O)N2C(=O)/C(=C/c3ccccn3)[C@H]2S1(=O)=O` is reported as 7% (cell growth or viability; 32.2 µM).
`CC1(C)C2CC[C@]3(C)[C@H](C(=O)C=C4[C@@H]5C[C@@](C)(C(=O)N6CCN(C(=O)Cc7ccc(Cl)cc7)CC6)CC[C@]5(C)CC[C@]43C)[C@@]2(C)CC[C@@H]1OC(=O)Cc1ccc(Cl)cc1` (some centres unmarked) gave an inhibition of 0% (cell growth or viability, MTT; 20 µg/mL).
For `C/C(=N\N=C1/NC(=O)CS1)c1ccccn1`, the inhibition was 60.2% (cell growth or viability, SRB; 100 µg/mL, 48 h).
For `Cn1c(=O)c(C(=O)N/N=C/c2ccccc2/C=N/NC(=O)c2nc3ccccc3n(C)c2=O)nc2ccccc21`, the inhibition was 54.2% (cell growth or viability, MTT; 10 µM).
The inhibition of `CC(C)(C)c1cc2c(O)c(c1)Cc1cc(C(C)(C)C)cc(c1OCC(=O)NCc1ccccn1)Cc1cc(C(C)(C)C)cc(c1O)Cc1cc(C(C)(C)C)cc(c1OCC(=O)NCc1ccccn1)COC2` is reported as 94% (cell growth or viability, MTT; 15 µM, 72 h).
`CC(=O)O[C@@H]1CC[C@@]2(C)C(CC[C@]3(C)C2C(=O)C=C2C4[C@@H](C)[C@H](C)CC[C@]4(C)CC[C@]23C)[C@@]1(C)C(=O)OCC(=O)Oc1cc(C)ccc1C(C)C` (some centres unmarked) has an inhibition of about 41% (TNF-α production, ELISA, measured: TNF-α; 1 µM, added: acetaminophen 10 mM; relative to: acetaminophen-treated cells).
For `O=C(COc1ccccc1/C=N/Nc1nc(-c2ccc(Br)cc2)cs1)N1CCN(C(=O)COc2ccccc2/C=N/Nc2nc(-c3ccc(Br)cc3)cs2)CC1`, the inhibition was 74.8% (cell growth or viability, SRB; 100 µM, 48 h).
With `CC(C)(C)c1cc2c(O)c(c1)Cc1cc(C(C)(C)C)cc(c1OCC(=O)Nc1cccc3ncccc13)Cc1cc(C(C)(C)C)cc(c1O)Cc1cc(C(C)(C)C)cc(c1OCC(=O)Nc1cccc3ncccc13)COC2` the inhibition was 25% (cell growth or viability, MTT; 15 µM, 72 h).

Some of these lines once more:
With `O=C(COc1ccc(/C=N/Nc2nc(-c3ccc(Br)cc3)cs2)cc1)N1CCN(C(=O)COc2ccc(/C=N/Nc3nc(-c4ccc(Br)cc4)cs3)cc2)CC1` the inhibition was 62.3% (cell growth or viability, SRB; 100 µM, 48 h).
The inhibition of `C[C@]1(COC(=O)c2ccc(O)c(O)c2)[C@H](C(=O)O)N2C(=O)/C(=C/c3ccccn3)[C@H]2S1(=O)=O` is reported as 7% (cell growth or viability; 32.2 µM).
